{"data": "Literature values, collected from citations in different studies", "HRH2": "Histamine H2 receptor (HRH2, Homo sapiens, UniProt P25021)", "note": "Protocols differ between the studies behind these lines.", "chain of UniProt P25021 (whole entry, looked up)": "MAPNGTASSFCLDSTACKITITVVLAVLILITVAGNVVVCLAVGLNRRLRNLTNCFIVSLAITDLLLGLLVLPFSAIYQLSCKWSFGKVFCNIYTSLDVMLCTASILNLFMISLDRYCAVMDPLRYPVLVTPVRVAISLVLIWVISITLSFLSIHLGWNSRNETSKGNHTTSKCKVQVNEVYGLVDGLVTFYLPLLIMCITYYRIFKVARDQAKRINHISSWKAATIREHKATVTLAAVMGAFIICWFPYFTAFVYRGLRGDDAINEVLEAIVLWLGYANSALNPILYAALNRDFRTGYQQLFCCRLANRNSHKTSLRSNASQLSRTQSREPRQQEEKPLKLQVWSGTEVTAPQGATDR"}
{"Molecule": "Cc1cc(Nc2ccc(C)c(Cl)c2)n2nc(C(F)(F)F)nc2n1", "target or system": "Trypanosoma cruzi", "system": "Tulahuen C4 LacZ", "measurement": "IC50", "value": "22.9 µM"}
{"Molecule": "Cc1ccc(C(C)C)cc1O", "target or system": "Candida albicans", "system": "Galleria mellonella", "setting": "dose not given, post-infection treatment", "measurement": "survival increase", "value": "100%"}
{"Molecule": "NC(=O)c1ncn([C@@H]2O[C@H](CO)[C@@H](O)[C@H]2O)n1", "target or system": "respiratory syncytial virus A", "assay": "viral replication, MTT", "system": "Long", "measurement": "EC50", "value": "4.7 µM"}
{"Molecule": "C=CCN(CC=C)CCc1c[nH]c2ccc(OC)cc12", "target or system": "HRH2", "measurement": "Ki", "value": "> 10 µM"}
{"Molecule": "CC(C)(O/N=C(\\C(=O)N[C@@H]1C(=O)N2C(C(=O)[O-])=C(C[n+]3ccccc3)CS[C@H]12)c1csc(N)n1)C(=O)O", "target or system": "Acinetobacter baumannii", "system": "OXA-225 producing", "measurement": "MIC", "value": "> 32 µg/mL"}
{"Molecule": "CCC[C@H](NC(=O)[C@@H]1[C@H]2CCC[C@H]2CN1C(=O)[C@@H](NC(=O)[C@@H](NC(=O)c1cnccn1)C1CCCCC1)C(C)(C)C)C(=O)C(=O)NC1CC1", "target or system": "hepatitis C virus", "system": "HCV-infected patients", "setting": "dose not given, added: ribavirin and pegylated interferon alpha", "measurement": "cure rate", "value": "60 to 80%"}
{"Molecule": "COc1ccc2sc(N(Cc3cccnc3)C(=O)c3ccc(C#N)cc3)nc2c1", "target or system": "Trypanosoma cruzi", "system": "Tulahuen C4 LacZ", "measurement": "IC50", "value": "5.5 µM"}
{"Molecule": "C=CCN(CC=C)CCc1c[nH]c2ccccc12", "target or system": "HRH2", "assay": "binding", "system": "cloned human receptor", "setting": "added: [3H]tiotidine", "measurement": "Ki", "value": "> 10 µM"}
{"Molecule": "Cc1nc2ccccc2c(O)c1CC=C(Cl)Cl", "target or system": "Trypanosoma cruzi", "system": "Tulahuen C4 LacZ", "measurement": "IC50", "value": "1.9 µM"}
{"Molecule": "interferon alpha", "target or system": "Norwalk virus", "assay": "viral replication", "system": "HG23 Norwalk virus replicon cells", "setting": "20 units", "measurement": "polymerase protein level", "value": "decreased"}
{"Molecule": "COCCNC(=O)c1ccc(OC2CCN(Cc3ccc(F)c(F)c3)CC2)c(Cl)c1", "target or system": "Trypanosoma cruzi", "system": "Tulahuen C4 LacZ", "measurement": "IC50", "value": "> 32 µM"}
{"Molecule": "NC(=O)c1nc(F)cnc1O", "target or system": "Pichinde virus", "system": "hamster", "setting": "100 mg/kg/day, from day 4 or 5 post infection", "measurement": "survival", "value": "100%"}
{"Molecule": "Cc1ccc(C(C)C)c(O)c1", "target or system": "bacterial isolates", "system": "canine otitis externa, multidrug-resistant", "measurement": "MIC90", "value": "200 to 2290 µg/mL"}
{"Molecule": "Cn1c(Cn2ccc(C(F)(F)F)c(Oc3cc(Cl)cc(C#N)c3)c2=O)n[nH]c1=O", "target or system": "HIV-1", "system": "RES056 K103N/Y181C", "how to read": "relative to: CC50 over EC50", "measurement": "selectivity index", "value": "> 2300"}
{"note": "A few entries again:"}
{"Molecule": "COc1ccc2sc(N(Cc3cccnc3)C(=O)c3ccc(C#N)cc3)nc2c1", "target or system": "Trypanosoma cruzi", "system": "Tulahuen C4 LacZ", "measurement": "IC50", "value": "5.5 µM"}
{"Molecule": "C=CCN(CC=C)CCc1c[nH]c2ccccc12", "target or system": "HRH2", "assay": "binding", "system": "cloned human receptor", "setting": "added: [3H]tiotidine", "measurement": "Ki", "value": "> 10 µM"}
